Results of several laboratories.
A part holds a random share of what one study measured.

Series 1
Target: Histone acetyltransferase KAT6A, both winged helices, GST fusion (KAT6A, Homo sapiens, UniProt Q92794, residues 1-181)
Technique: protein binding microarray
Form: double-stranded DNA, one strand shown
Medium: in vitro
Concentration: not given
Notes: 8-mer, flanks averaged, mean of 2 arrays, mostly near background
Reference: not given
Direction: higher = stronger binding
Target sequence (chain): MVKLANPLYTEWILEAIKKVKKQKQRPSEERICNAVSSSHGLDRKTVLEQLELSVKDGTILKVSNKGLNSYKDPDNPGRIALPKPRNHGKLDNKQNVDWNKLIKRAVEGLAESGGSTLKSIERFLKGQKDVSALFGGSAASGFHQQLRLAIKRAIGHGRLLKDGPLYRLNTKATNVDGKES
With `TCTAAACA` the E-score was 0.0156.
`CAAAGTTG` has an E-score of -0.0674.
For `AAACGAGG`, the E-score was -0.112.
`ACCTGTAT` has an E-score of -0.193.
`AGGAACAT` has an E-score of -0.171.

Series 2
Target: Interferon regulatory factor 5, full length, phosphomimetic (IRF5, Homo sapiens, UniProt Q13568-2, residues 1-514, S451D/S453D/S456D/S462D)
Technique: protein-binding microarray
Form: double-stranded DNA, one strand shown
Medium: in vitro
Concentration: 940 nM top
Notes: 60-bp whole probe
With: salmon DNA 0.4 mg/ml
Reference: random background probes
Direction: higher = stronger binding
Shared flanks, not repeated: GCCTAGCAC … GTCTTGATTCGCTTGACGCTGCTG
`GACGGTTTCGGCCTCGGGACGTGCTAG` — result for “fitted relative affinity”: 8.09 z-score.
`TTAGAACTGGGGACTGGTTTAGTGCTA` — result for “fitted relative affinity”: 0.0258 z-score.
Under “fitted relative affinity”, `GGAGGTCTGGATGTGCCGCGGTGCTAG` is recorded as -0.553 z-score.
`TCATTTTACTTTCTATGACTGTGCTAG` — result for “fitted relative affinity”: 2.29 z-score.
Under “fitted relative affinity”, `GACGGTTTAGGGTATCGGGACGTGCTA` is recorded as 0.853 z-score.
Under “fitted relative affinity”, `GACGCTTCCGGTTTCGGGACGTGCTAG` is recorded as 4.22 z-score.

Series 3
Target: Sal-like protein 4, full length isoform A (SALL4, Homo sapiens, UniProt Q9UJQ4, residues 1-1053)
UniProt Q9UJQ4, sequence (whole entry, looked up): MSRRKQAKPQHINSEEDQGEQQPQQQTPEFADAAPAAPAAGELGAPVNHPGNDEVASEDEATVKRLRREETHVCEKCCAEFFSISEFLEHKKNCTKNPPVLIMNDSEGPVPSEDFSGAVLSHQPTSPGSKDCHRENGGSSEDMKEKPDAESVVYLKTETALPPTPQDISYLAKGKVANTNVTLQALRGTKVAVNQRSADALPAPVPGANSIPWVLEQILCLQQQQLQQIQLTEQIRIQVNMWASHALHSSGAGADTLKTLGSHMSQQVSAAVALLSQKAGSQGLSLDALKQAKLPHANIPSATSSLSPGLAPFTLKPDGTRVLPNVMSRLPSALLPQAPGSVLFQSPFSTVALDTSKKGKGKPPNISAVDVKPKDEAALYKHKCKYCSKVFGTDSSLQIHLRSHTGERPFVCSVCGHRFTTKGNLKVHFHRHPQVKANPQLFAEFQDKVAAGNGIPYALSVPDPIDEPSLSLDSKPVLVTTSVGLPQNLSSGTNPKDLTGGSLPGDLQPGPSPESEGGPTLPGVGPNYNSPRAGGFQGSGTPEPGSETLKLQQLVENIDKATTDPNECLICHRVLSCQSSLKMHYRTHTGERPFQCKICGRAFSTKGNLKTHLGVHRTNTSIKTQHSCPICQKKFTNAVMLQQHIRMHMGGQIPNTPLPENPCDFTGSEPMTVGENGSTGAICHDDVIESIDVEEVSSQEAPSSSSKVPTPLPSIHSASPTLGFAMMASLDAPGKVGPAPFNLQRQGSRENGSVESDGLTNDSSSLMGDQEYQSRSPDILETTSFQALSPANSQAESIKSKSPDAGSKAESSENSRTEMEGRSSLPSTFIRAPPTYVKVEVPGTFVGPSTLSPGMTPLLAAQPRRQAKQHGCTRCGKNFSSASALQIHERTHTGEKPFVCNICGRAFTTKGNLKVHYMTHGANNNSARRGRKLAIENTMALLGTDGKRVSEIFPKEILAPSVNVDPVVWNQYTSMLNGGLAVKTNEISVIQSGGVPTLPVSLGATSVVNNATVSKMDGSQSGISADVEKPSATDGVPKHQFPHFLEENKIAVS
Technique: universal PBM
Form: double-stranded DNA, one strand shown
Medium: in vitro
Concentration: 600 nM
Notes: 8-mer, flanks averaged, mean of replicates
Direction: higher = stronger binding
`TATCCGCA` has an E-score of 0.155.
With `ATAAATCA` the E-score was 0.333.
For `CAGTTCGC`, the E-score was 0.057.
`GAGAAGTA` has an E-score of 0.16.
For `CTGCCCAC`, the E-score was -0.212.
`AATGGAAC` has an E-score of 0.00436.

Mixed results
The fold induction of `PhoQ, residues 284 288 289 292 302 303 AGHLVA` is reported as 2.34 (PhoP, residues 12 14 15 18 19 IFFTR (Escherichia coli, UniProt P23836); Sort-seq, measured: YFP reporter; E. coli; PhoQ-PhoP variant library, with: 10 µM Mg2+; reference: high Mg2+ state, higher = stronger signaling).

Repeated from above (series 3):
For `CAGTTCGC`, the E-score was 0.057.
